Published values from different studies.
Each numbered part is a random draw from the data of one study; scales do not carry over between parts.
Chain of UniProt Q14680 (whole entry, looked up): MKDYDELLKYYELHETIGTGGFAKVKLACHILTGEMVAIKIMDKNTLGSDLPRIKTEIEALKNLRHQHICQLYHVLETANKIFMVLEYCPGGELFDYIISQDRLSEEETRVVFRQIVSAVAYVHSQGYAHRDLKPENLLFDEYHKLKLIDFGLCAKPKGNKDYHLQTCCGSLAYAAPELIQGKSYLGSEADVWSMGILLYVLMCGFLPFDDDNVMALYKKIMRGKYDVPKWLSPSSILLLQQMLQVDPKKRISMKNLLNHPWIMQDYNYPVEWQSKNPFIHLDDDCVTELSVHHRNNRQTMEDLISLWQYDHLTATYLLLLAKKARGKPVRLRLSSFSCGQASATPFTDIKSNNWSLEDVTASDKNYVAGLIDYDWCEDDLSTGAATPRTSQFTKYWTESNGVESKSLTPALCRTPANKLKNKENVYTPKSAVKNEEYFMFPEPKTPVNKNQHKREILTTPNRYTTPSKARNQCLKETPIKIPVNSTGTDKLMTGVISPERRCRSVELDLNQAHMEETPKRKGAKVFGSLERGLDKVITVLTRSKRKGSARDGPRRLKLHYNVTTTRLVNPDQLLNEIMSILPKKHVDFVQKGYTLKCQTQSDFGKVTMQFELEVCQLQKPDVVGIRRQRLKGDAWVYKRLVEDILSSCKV
Chain of UniProt P48730 (whole entry, looked up): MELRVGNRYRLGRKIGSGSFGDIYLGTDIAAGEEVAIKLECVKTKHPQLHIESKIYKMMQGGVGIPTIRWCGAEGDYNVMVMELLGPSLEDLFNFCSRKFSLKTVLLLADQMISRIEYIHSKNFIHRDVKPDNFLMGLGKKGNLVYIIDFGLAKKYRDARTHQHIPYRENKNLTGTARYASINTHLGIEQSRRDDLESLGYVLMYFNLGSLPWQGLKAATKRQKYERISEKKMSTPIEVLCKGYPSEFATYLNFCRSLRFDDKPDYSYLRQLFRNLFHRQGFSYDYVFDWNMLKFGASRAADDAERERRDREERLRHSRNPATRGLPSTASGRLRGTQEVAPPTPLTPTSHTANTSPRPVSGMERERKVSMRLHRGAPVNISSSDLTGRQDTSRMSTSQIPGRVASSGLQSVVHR
Chain of UniProt P07947 (whole entry, looked up): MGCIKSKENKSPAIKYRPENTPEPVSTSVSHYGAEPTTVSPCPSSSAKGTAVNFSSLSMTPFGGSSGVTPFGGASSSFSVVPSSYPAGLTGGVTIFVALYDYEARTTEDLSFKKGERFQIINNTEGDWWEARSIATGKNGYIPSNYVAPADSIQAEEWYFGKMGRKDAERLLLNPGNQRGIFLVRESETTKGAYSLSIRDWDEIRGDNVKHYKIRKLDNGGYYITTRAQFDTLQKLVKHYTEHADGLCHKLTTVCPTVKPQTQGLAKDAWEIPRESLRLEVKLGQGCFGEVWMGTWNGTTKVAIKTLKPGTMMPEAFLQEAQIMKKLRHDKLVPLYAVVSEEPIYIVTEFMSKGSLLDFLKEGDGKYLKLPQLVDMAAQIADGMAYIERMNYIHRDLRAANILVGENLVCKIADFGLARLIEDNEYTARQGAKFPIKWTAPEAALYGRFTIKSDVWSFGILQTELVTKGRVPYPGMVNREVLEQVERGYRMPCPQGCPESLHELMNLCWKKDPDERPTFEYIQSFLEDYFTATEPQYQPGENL
Chain of UniProt P46734 (whole entry, looked up): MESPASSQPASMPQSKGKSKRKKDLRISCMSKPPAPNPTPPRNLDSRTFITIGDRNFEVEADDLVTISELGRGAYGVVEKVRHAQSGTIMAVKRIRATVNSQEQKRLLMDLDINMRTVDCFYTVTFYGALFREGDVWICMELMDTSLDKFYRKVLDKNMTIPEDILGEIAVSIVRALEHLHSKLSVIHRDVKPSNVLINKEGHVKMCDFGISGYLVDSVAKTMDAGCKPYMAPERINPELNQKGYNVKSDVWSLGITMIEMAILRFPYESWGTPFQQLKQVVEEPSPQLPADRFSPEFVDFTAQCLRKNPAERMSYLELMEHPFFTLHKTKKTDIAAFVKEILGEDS
Chain of UniProt Q96RR4 (whole entry, looked up): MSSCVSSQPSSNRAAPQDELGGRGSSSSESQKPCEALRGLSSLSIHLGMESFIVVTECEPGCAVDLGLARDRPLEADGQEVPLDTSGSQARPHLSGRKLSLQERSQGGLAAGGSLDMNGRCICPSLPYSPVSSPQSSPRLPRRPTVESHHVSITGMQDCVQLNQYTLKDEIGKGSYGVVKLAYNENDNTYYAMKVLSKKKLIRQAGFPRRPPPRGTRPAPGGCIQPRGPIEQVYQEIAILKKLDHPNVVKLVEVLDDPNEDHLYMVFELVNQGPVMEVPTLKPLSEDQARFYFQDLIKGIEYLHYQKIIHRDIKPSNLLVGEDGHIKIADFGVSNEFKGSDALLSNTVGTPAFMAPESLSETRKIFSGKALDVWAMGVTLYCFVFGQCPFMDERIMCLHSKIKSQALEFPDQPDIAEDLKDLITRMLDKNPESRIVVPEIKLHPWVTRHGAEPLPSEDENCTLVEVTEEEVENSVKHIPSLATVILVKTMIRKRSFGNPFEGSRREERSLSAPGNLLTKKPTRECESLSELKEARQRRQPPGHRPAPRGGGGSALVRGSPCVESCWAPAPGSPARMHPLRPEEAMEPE
Chain of UniProt P00519 (whole entry, unmodified, looked up): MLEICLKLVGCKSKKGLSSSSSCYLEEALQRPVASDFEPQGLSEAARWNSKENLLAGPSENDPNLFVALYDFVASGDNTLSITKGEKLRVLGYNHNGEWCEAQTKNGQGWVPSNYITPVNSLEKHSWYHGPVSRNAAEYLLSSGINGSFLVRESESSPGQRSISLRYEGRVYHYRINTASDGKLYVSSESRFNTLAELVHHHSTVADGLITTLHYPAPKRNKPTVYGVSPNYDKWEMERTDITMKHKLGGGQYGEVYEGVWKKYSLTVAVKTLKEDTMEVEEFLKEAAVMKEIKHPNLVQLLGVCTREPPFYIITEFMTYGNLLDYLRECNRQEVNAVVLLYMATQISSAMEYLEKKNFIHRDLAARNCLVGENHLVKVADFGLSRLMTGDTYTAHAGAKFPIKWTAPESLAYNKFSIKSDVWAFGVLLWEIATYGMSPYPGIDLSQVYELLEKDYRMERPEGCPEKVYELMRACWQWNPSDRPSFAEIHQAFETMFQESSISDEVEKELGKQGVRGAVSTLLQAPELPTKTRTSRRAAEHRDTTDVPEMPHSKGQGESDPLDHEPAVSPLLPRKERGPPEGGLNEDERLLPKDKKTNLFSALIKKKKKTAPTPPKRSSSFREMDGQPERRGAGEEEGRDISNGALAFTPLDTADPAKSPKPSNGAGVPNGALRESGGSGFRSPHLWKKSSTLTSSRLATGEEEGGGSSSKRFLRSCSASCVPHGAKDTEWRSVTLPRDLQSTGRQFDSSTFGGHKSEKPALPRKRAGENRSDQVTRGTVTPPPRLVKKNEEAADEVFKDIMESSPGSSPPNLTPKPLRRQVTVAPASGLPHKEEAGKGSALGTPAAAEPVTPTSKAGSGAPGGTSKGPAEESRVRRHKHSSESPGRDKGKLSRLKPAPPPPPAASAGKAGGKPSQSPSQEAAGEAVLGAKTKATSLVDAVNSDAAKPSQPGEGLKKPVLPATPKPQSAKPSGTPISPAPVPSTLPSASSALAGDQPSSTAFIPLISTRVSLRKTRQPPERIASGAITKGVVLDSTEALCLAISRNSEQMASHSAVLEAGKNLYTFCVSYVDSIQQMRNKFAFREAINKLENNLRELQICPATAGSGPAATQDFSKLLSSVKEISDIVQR

Block 1
Host: mouse
Matrix: microsomes or S9
Concentration: 2 µM
Time: 0.5 h
| SMILES | remaining compound |
| --- | --- |
| CON(C)C(=O)[C@H]1CCCN1C(=O)OC(C)(C)C | > 99% |
| COc1c(Cl)ccc(C2=NOC(c3cc(N)c(Cl)c(C(=O)O)n3)C2)c1F (stereo not drawn) | 82.3% |
| COc1ccccc1Nc1nc(N)nc(CN(C)Cc2ccco2)n1 | 1.98% |
| CC(CC(=O)c1cccs1)NC(=O)C(C)n1cncn1 (stereo not drawn) | 95.6% |
| COCCn1c(C(=O)OC)cc2c(=O)n(C)c(=O)n(C)c21 | 0.184% |
| c1ccc(-c2nc(-c3ccc(-c4noc(-c5ccco5)n4)cc3)cs2)cc1 | 43.6% |
| CCOC(=O)C(CCC1(Cc2cccs2)C(=O)OC(C)(C)OC1=O)(NC(C)=O)C(=O)OCC | 1.06% |

Block 2
SMILES: C=CCc1ccc(O)c(-c2ccc(O)c(CC=C)c2)c1
Effect on: chloride current
Method: whole-cell voltage clamp
ANO1 del476-501/R631I: Anoctamin-1 (ANO1, Homo sapiens, UniProt Q5XXA6, del476-501/R631I)
Chain of UniProt Q5XXA6 (whole entry, unmodified, looked up): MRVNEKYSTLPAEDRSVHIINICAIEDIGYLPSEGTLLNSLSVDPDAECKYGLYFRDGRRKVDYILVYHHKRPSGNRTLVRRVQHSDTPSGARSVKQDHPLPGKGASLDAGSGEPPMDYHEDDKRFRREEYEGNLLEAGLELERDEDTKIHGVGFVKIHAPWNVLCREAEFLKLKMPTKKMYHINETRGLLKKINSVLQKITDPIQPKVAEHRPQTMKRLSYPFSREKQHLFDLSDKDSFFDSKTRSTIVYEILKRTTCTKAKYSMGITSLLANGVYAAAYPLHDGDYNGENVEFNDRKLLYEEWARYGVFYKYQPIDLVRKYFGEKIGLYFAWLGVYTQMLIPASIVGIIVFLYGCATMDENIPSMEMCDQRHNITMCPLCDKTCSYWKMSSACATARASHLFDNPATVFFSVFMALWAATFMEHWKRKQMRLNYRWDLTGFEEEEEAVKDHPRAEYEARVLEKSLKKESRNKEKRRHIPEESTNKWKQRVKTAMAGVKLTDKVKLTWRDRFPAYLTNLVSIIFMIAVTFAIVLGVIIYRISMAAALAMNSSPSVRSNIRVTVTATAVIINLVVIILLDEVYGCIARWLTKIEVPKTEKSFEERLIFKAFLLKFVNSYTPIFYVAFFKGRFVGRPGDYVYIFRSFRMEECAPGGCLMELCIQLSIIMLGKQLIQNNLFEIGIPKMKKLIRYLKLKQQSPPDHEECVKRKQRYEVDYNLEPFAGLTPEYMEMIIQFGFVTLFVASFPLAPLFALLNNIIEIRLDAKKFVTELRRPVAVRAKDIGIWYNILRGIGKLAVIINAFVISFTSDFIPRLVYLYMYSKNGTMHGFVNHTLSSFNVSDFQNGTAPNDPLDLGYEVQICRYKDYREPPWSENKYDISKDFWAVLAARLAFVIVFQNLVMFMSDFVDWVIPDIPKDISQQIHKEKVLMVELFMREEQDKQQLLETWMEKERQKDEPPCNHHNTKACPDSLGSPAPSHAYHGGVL
| target | action | notes | together with | IC50 [µM] |
| --- | --- | --- | --- | --- |
| Anoctamin-1 (ANO1, Homo sapiens, UniProt Q5XXA6, del476-501) | inhibitor | -80 mV voltage | 300 nM Ca2+ | 3.01 |
| Anoctamin-1 (ANO1, Homo sapiens, UniProt Q5XXA6, del476-501/M544A) |  | membrane voltage -80 mV |  | 4.13 |
| ANO1 del476-501/R631I | inhibitor | R605I mutant at -60 mV |  | 23.8 |
| Anoctamin-1 (ANO1, Homo sapiens, UniProt Q5XXA6, del476-501/F628I) | inhibitor | F602I mutant at 20 mV |  | 9.25 |
| Anoctamin-1 (ANO1, Homo sapiens, UniProt Q5XXA6, del476-501/F803W) | inhibitor | mutant F777W |  | 7.43 |
| ANO1 del476-501/R631I | inhibitor | R605I mutant at 20 mV |  | 22.5 |

Block 3
Compound: CCS(=O)(=O)c1cc2cc(C[C@](O)(CC(C)(C)c3ccc(F)cc3C(N)=O)C(F)(F)F)[nH]c2cn1
Concentration: 1 µM
| target | effect on | method | remaining binding [%] |
| --- | --- | --- | --- |
| TYRO3 (Homo sapiens, UniProt Q06418) | cell-free assay | competition with immobilised ligand | 81 |
| CAMKK2 (Homo sapiens, UniProt Q96RR4) | cell-free assay | competition with immobilised ligand | 100 |
| YES1 (Homo sapiens, UniProt P07947) | cell-free assay | competition with immobilised ligand | 100 |
| MELK (Homo sapiens, UniProt Q14680) | cell-free assay | competition with immobilised ligand | 100 |
| CSNK1D (Homo sapiens, UniProt P48730) | cell-free assay | competition with immobilised ligand | 96 |
| MAP3K7 (Homo sapiens, UniProt O43318) | cell-free assay | competition with immobilised ligand | 100 |
| FGFR3 (Homo sapiens, UniProt P22607) | cell-free assay | competition with immobilised ligand | 100 |
| PRKAA1 (Homo sapiens, UniProt Q13131) | cell-free assay | competition with immobilised ligand | 100 |
| GRK1 (Homo sapiens, UniProt Q15835) | cell-free assay | competition with immobilised ligand | 100 |
| PRKCD (Homo sapiens, UniProt Q05655) | cell-free assay | competition with immobilised ligand | 100 |
| STK32A (Homo sapiens, UniProt Q8WU08) | cell-free assay | competition with immobilised ligand | 84 |
| Tyrosine-protein kinase ABL1, phosphorylated (ABL1, Homo sapiens, UniProt P00519, F317I) | binding |  | 94 |
| TEK (Homo sapiens, UniProt Q02763) | cell-free assay | competition with immobilised ligand | 90 |
| MAP2K3 (Homo sapiens, UniProt P46734) | cell-free assay | competition with immobilised ligand | 100 |
| FES (Homo sapiens, UniProt P07332) | cell-free assay | competition with immobilised ligand | 100 |

Block 4
Cell line: HaCaT
Concentration: 100 µM
Time: 18 h
| SMILES | viability |
| --- | --- |
| CCOC(=O)c1ccc(C#Cc2ccc3c(c2)C(C)(C)CCS3)nc1 | 64.7% |
| COc1cc2c(Oc3ccc4[nH]c(C)cc4c3F)ncnc2cc1OCCCN1CCCC1 | 18.4% |
| COc1cccc2c1C(=O)c1c(O)c3c(c(O)c1C2=O)C[C@@](O)(C(C)=O)C[C@@H]3O[C@H]1C[C@H](N)[C@H](O)[C@H](C)O1 | 31% |
| CCCCS(=O)(=O)N[C@@H](Cc1ccc(OCCCCC2CCNCC2)cc1)C(=O)O | 99.8% |
| Nc1ccc(S(=O)(=O)Nc2nccs2)cc1 | 77.3% |
| CCCc1nc(C)c2c(=O)[nH]c(-c3cc(S(=O)(=O)N4CCN(CC)CC4)ccc3OCC)nn12 | 68.5% |
| CC(C)(Oc1ccc(C(=O)c2ccc(Cl)cc2)cc1)C(=O)O | 99.9% |
| Clc1ccc(CCC(Cn2ccnc2)Sc2c(Cl)cccc2Cl)cc1 (stereo not drawn) | 16.4% |
| CC(C)(S)C(N)C(=O)O (racemic) | 96.9% |
| COc1ccc2cc3[n+](cc2c1OC)CCc1cc2c(cc1-3)OCO2 | 121% |
| CCCCOc1ccc(OCCCN2CCOCC2)cc1 | 97.3% |

A few entries again (block 3):
| target | effect on | method | remaining binding [%] |
| --- | --- | --- | --- |
| Tyrosine-protein kinase ABL1, phosphorylated (ABL1, Homo sapiens, UniProt P00519, F317I) | binding |  | 94 |
| TYRO3 (Homo sapiens, UniProt Q06418) | cell-free assay | competition with immobilised ligand | 81 |
| STK32A (Homo sapiens, UniProt Q8WU08) | cell-free assay | competition with immobilised ligand | 84 |
| GRK1 (Homo sapiens, UniProt Q15835) | cell-free assay | competition with immobilised ligand | 100 |
| TEK (Homo sapiens, UniProt Q02763) | cell-free assay | competition with immobilised ligand | 90 |
